Published values collected from several papers.
Converted amounts (≈) assume the structure as drawn.
Chain of UniProt P57078 (whole entry, looked up): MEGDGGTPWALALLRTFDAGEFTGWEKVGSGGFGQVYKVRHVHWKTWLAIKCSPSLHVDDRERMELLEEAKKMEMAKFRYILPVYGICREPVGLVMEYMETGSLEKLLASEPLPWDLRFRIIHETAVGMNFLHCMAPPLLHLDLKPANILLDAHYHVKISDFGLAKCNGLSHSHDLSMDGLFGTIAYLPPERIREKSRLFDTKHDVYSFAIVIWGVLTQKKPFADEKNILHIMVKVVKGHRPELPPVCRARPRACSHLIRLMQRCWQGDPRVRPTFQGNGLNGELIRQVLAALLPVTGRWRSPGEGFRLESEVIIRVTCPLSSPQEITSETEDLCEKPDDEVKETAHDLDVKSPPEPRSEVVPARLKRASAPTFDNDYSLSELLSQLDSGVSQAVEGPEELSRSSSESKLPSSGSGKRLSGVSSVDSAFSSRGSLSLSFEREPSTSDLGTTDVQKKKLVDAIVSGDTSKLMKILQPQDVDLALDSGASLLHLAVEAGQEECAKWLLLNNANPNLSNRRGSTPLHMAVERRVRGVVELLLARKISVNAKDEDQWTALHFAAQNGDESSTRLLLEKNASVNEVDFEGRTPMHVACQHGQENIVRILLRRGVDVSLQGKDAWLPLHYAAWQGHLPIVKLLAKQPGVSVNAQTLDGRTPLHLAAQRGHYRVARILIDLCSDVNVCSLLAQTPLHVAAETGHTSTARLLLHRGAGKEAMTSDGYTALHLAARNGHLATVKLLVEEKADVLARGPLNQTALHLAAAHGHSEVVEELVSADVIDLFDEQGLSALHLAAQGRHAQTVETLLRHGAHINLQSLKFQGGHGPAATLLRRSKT

| Compound | tested on | assay | system | setting | endpoint | result |
| --- | --- | --- | --- | --- | --- | --- |
| COC(=O)c1cc(-c2cccc(NC(=S)Nc3ccc(F)cc3F)c2)on1 | Mycolicibacterium fortuitum | microbial growth, broth dilution | ATCC6841 | 48 h | MIC | 16 µg/mL (≈ 41.1 µM) |
| C#Cc1ccc(O)c(C=NNC(=O)c2ccc(Br)cc2Br)c1 | Candida albicans | microbial growth |  | pH 7.4 | MIC80 | 2 µg/mL (≈ 4.74 µM) |
| COC(=O)c1cc(-c2cccc(NC(=O)NCc3ccccc3)c2)on1 | Klebsiella pneumoniae | microbial growth, broth dilution | BAA1705 |  | MIC | > 64 µg/mL |
| CC(c1ccc(OC(F)(F)F)cc1)c1nn2c(-c3cccs3)nnc2s1 (stereo not shown) | Plasmodium falciparum | parasite growth, SYBR Green | 3D7 | 72 h | EC50 | 170 nM |
| COC(=O)c1cc(-c2cccc(NC(=O)Nc3cc(OC)ccc3OC)c2)on1 | Mycolicibacterium fortuitum | microbial growth, broth dilution | ATCC6841 | 48 h | MIC | > 64 µg/mL |
| COC1=CC2=[N+](C)CCc3c[nH]c(c32)C1=O | Plasmodium falciparum | parasite growth, SYBR Green | 3D7 | blood stage | IC50 | 599 nM |
| C=CCn1c(SCC(=O)Nc2cc(C)ccc2OC)nc2sc(C)cc2c1=O | Plasmodium falciparum | parasite growth, SYBR Green | 3D7 | 72 h | EC50 | 1200 nM |
| CC(C)(C#Cc1ccc(-c2ccc(Cl)c3c(NS(C)(=O)=O)nn(CC(F)(F)F)c23)c([C@@H](CC2CCCCC2)NC(=O)Cn2nc(C(F)(F)F)c3c2C(F)(F)[C@H]2C[C@@H]32)n1)S(C)(=O)=O | Human immunodeficiency virus 1 | viral replication, inhibitor |  |  | EC50 | 70 nM |
| COC(=O)c1cc(-c2cccc(NC(=S)Nc3cccc(Cl)c3)c2)on1 | Mycobacteroides chelonae | microbial growth, broth dilution | ATCC35752 | 48 h | MIC | > 64 µg/mL |
| O=c1[nH]c2scc(-c3ccc(Cl)cc3)c2c(=O)n1O | Human betaherpesvirus 5 | viral replication, inhibitor |  | 10 µM, 7 days | inhibition | -1.7% |
| COC(=O)c1cc(-c2cccc(NC(=S)Nc3ccc(F)c(Cl)c3)c2)on1 | Mycobacteroides chelonae | microbial growth, broth dilution | ATCC35752 | 48 h | MIC | 32 µg/mL (≈ 78.8 µM) |
| CC(CCCN(CCCl)CCCl)Nc1ccnc2cc(Cl)ccc12 (stereo not shown) | Dengue virus | viral replication, inhibitor | BHK-21, DENV2 | 50 µM, 24 h, replicon | inhibition | 99.6% |
| C#Cc1ccc(O)c(C=NNC(=O)c2ccc(Br)c(Br)c2)c1 | Cryptococcus neoformans | microbial killing |  |  | MFC | 0.5 µg/mL |
| O=C(NNc1cccc(Cl)c1)c1nnc(CC23CC4CC(CC(C4)C2)C3)o1 | Rhizoctonia solani | microbial growth |  | 50 µg/mL | inhibition | 61.2% |
| C#Cc1ccc(O)c(C=NNC(=O)c2ccc(Br)cc2)c1 | Candida albicans | microbial growth |  | pH 7.4 | MIC80 | 0.5 µg/mL (≈ 1.46 µM) |
| [2H]c1c([2H])c([C@]2([2H])CCCN2C(=O)C(C)(C)Oc2ccc3cn[nH]c3c2)c([2H])c([2H])c1C([2H])([2H])[2H] | Receptor-interacting serine/threonine-protein kinase 4 (RIPK4, Homo sapiens, UniProt P57078) | binding, competition with immobilised ligand |  | 1 µM | remaining binding | 75% |
| COCc1ccccc1C(=O)NCCOc1cc(C)cc(C)c1 | Plasmodium falciparum | parasite growth, SYBR Green | 3D7 | 72 h | EC50 | 116 nM |
| C#Cc1cccc(C=NNC(=O)c2ccc(Br)c(Br)c2)c1O | Candida albicans | microbial growth |  | pH 7.4 | MIC80 | 0.5 µg/mL (≈ 1.18 µM) |
| O=C(NNc1ccc(Cl)c(Cl)c1)c1nnc(CC23CC4CC(CC(C4)C2)C3)o1 | Rhizoctonia solani | microbial growth |  |  | EC50 | > 12.5 µg/mL |
| COC(=O)c1cc(-c2cccc(NC(=S)Nc3ccc([N+](=O)[O-])cc3)c2)on1 | Pseudomonas aeruginosa | microbial growth, broth dilution | ATCC27853 |  | MIC | > 64 µg/mL |
| CCCn1c(O)nnc1SCC(=O)Nc1cc(C(F)(F)F)ccc1Cl | Plasmodium falciparum | parasite growth, SYBR Green | 3D7 | 72 h | EC50 | 812 nM |
| CO/C=C(/C(=O)OC)c1ccccc1Oc1cc(Oc2ccccc2C#N)ncn1 | Rhizoctonia solani | microbial growth |  | 50 µg/mL | inhibition | 45.4% |
| C#Cc1cc(O)c(C=NNC(=O)c2ccc(Br)cc2Br)cc1C#C | Cryptococcus neoformans | microbial growth, broth dilution |  | pH 7.4 | MIC80 | 0.015 µg/mL (≈ 0.0336 µM) |
| CCCCCCNC(=S)Nc1cccc(-c2cc(C(=O)OC)no2)c1 | Mycolicibacterium fortuitum | microbial growth, broth dilution | ATCC6841 | 48 h | MIC | > 64 µg/mL |
| CC(=O)N1CCN(c2ccc(OCC3COC(Cn4ccnc4)(c4ccc(Cl)cc4Cl)O3)cc2)CC1 (stereo not shown) | Candida albicans | microbial killing, broth dilution | CGMCC2 | 48 h | MFC | 32 µM |

Some of these lines once more:
| Compound | tested on | assay | system | setting | endpoint | result |
| --- | --- | --- | --- | --- | --- | --- |
| C#Cc1ccc(O)c(C=NNC(=O)c2ccc(Br)c(Br)c2)c1 | Cryptococcus neoformans | microbial killing |  |  | MFC | 0.5 µg/mL |
| O=C(NNc1cccc(Cl)c1)c1nnc(CC23CC4CC(CC(C4)C2)C3)o1 | Rhizoctonia solani | microbial growth |  | 50 µg/mL | inhibition | 61.2% |
